# Measured values pooled from the literature.
# Parts stem from different laboratories: compare values within a part only. Changes are numbered by the printed parent chain.

# Block 1
# Target: Sal-like protein 4, full length isoform B (SALL4, Homo sapiens, UniProt Q9UJQ4-2, residues 1-616)
# Technique: universal PBM
# Form: double-stranded DNA, one strand shown
# Sample: in vitro
# Concentration: not given
# Setting: 8-mer, flanks averaged, mean of replicates
# Reading: higher = stronger binding
# Residues (chain): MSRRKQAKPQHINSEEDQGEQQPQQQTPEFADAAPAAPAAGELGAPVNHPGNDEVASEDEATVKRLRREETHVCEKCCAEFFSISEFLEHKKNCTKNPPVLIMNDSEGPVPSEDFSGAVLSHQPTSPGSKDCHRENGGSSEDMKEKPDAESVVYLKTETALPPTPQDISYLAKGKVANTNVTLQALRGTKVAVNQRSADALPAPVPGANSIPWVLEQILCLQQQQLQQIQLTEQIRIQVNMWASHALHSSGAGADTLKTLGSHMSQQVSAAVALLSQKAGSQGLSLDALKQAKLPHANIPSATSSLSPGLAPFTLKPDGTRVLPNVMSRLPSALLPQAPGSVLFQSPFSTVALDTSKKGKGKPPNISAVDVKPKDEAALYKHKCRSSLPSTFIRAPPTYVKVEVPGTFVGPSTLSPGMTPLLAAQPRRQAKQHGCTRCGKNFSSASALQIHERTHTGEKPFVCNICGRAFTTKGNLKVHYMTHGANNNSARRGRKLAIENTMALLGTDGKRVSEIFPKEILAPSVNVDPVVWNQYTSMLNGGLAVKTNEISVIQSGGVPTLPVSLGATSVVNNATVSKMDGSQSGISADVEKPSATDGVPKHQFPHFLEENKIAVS
Sequence,E-score
CCGTCTTC,-0.226
AGCTGGTG,-0.208
AACTCCCG,-0.0924
AGTAAAGG,0.0631
TGTCGCAA,0.14
TAACAAGA,0.173
CTACTAGA,0.0392
ATAAAGTC,0.221
AACGCGAA,-0.0633
ATGCGGCA,-0.17
GCCCGCAA,-0.152
AAGATCAA,0.102
CAGAGCAA,-0.05
AGGCCTAT,0.068
GACGAATA,0.155
ACCGCCGG,-0.351
CCGAAAAC,-0.0929
CTGAAAAC,0.175

# Block 2
# Target: CCNA1, cyclin fold, Cln2 fusion (human)
# Technique: yeast growth competition, sequencing
# Sample: yeast
# Setting: weak parent motif
# Relative to: not given
# Reading: higher = stronger binding
# Starting sequence: RBL1 docking peptide (human); GSAKRRLFGEDPP; partner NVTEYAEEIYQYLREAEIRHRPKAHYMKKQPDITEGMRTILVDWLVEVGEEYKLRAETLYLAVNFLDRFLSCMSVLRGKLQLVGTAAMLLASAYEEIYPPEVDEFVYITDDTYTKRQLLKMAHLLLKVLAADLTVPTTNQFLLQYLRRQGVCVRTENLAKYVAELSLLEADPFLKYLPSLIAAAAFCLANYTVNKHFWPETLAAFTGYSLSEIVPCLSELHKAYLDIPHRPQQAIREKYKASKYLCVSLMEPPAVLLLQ
Variant,normalised enrichment score
R6G,0.0128
G1I,1.14
G9N,1.11
P12W,0.481
G1R,0.653
K4D,0.226
P13C,0.384
G1H,0.519
F8A,0.231
S2G,0.583
K4V,0.375
K4L,0.271
A3L,0.45
E10W,0.478
P12M,0.388
K4Y,0.578
G1S,0.675
K4G,0.436
E10Q,0.163
R5G,0.1
E10K,0.383

# Block 3
# Target: Interferon regulatory factor 3, full length, phosphomimetic (IRF3, Homo sapiens, UniProt Q14653, residues 1-427, S386D/S396D/S398D/S402D/T404D/S405D)
# Technique: protein-binding microarray
# Form: double-stranded DNA, one strand shown
# Sample: in vitro
# Concentration: 2540 nM top
# Setting: 60-bp whole probe
# With: salmon DNA 0.4 mg/ml
# Relative to: random background probes
# Reading: higher = stronger binding
# Constant ends, left off below: GCCTAGCAC … GTCTTGATTCGCTTGACGCTGCTG
# Construct (chain): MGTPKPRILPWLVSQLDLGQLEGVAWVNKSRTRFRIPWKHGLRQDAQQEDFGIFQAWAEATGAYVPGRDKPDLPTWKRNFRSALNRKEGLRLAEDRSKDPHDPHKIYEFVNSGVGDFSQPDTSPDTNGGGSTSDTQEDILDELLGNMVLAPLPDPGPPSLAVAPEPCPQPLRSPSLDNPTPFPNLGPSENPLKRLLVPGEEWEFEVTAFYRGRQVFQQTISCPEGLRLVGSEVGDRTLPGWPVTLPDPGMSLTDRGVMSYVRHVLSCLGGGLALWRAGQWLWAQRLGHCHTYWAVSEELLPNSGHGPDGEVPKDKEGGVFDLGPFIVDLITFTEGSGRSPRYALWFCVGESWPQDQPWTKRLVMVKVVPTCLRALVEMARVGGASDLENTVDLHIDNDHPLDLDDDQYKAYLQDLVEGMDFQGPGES
Sequence,fitted relative affinity
TTAGGTCTCCTTAACCTTTAGTGCTAG,0.764 z-score
TTAGCTTTCAGACTGGATTAGTGCTAG,0.342 z-score
GATGGTCTCCTTTTCCTGACGTGCTAG,4.75 z-score
TTAGGTTTCCGACTGGGTTAGTGCTAG,4.18 z-score
TCAACTCTCTACATGGGACTGTGCTAG,0.328 z-score
TTAGATCTCAGGTTCGATTAGTGCTAG,0.365 z-score
TTAGGTATCGACTACCGGTTAGTGCTA,0.353 z-score
GACGAACTGAGTCTCGAAACGTGCTAG,-0.0279 z-score
GACGGTTTCCTGTTCCTGACGTGCTAG,4.59 z-score
TTAGGTCTCCTTTTGCTTTAGTGCTAG,3.38 z-score
TTAGATATCAGTCTCGAATAGTGCTAG,1.25 z-score
GTAGGTTTCGGTTTCGGTTAGTGCTAG,11.9 z-score
GTAGGTATCGGTTTCGGTTAGTGCTAG,8.8 z-score
GACCAACTGGGGTATCGAGACGTGCTA,-0.236 z-score
GAGGATATCAGTTTCGAGACGTGCTAG,3.07 z-score
TTAGGTCTCGGTCTCGGTTCGTGCTAG,1.43 z-score
GACGGTATCGCCACTGGGGACGTGCTA,0.406 z-score
GACGATATCGGGTTTCGAGAAGTGCTA,1.01 z-score
CTAGATTCCAGTTTCGATTAGTGCTAG,5.07 z-score
GACGGACTGTGACTGGGGACGTGCTAG,-0.724 z-score
TCAGGTAGCCTTATCCCACTGTGCTAG,1.29 z-score
TTAGGTATCGACTTTCAGTTAGTGCTA,0.962 z-score

# Block 4
# Target: Histone acetyltransferase KAT6A, winged helix 1, GST fusion (KAT6A, Homo sapiens, UniProt Q92794, residues 1-85)
# Technique: protein binding microarray
# Form: double-stranded DNA, one strand shown
# Sample: in vitro
# Concentration: not given
# Setting: 8-mer, flanks averaged, mean of 2 arrays, mostly near background
# Relative to: not given
# Reading: higher = stronger binding
# Target sequence (chain): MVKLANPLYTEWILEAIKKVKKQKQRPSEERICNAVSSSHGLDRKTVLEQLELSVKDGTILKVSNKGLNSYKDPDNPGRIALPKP
Sequence,E-score
GAGGTTAA,-0.102
AACGGGAC,0.207
CTACAAAC,-0.0558
CAATAGTA,0.0136
AATGATCT,-0.0827
AGCATATG,-0.0652
AGGCCCTA,-0.148
CCGGTGCC,0.29
ATAGCAAT,-0.305
AATTTCGT,-0.0543
GTGGTTAA,-0.0978
TCACTCAA,-0.205
GTGCAGGA,-0.161
CCTCGTTA,-0.287
CCTACCAC,-0.0606
CAGGGGAA,-0.145
ATCCTACA,-0.306
CCGTTGCC,0.33
ATGAGCGA,0.179
AAAGTTGC,-0.0713
ATCTACAA,-0.141
CAGTCCCA,-0.29
CCAATCCC,-0.0636
AAACCTCT,-0.0367

# Block 5
# Target: RING finger protein unkempt homolog, zinc fingers 1-6, GST-SBP tag (UNK, Homo sapiens, UniProt Q9C0B0, residues 30-357)
# Chain of UniProt Q9C0B0 (30-357, looked up): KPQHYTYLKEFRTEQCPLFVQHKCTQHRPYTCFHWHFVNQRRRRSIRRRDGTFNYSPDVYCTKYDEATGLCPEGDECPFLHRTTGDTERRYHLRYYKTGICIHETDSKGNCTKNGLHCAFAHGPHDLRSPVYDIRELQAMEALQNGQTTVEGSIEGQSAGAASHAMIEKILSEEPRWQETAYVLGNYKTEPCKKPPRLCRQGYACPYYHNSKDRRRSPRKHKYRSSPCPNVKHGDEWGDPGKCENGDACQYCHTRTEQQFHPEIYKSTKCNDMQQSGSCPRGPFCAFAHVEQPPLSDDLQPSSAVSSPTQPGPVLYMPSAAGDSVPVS
# Technique: RNA Bind-n-Seq
# Form: RNA
# Sample: in vitro
# Concentration: not given
# Setting: RNA with constant flanks, ends assumed
# Relative to: input RNA pool
# Reading: higher = stronger binding
# Constant ends, left off below: GGGAGUUCUACAGUCCGACGAUC … CAACAGAGGAUUGAGCAUCA
Sequence,bound/input enrichment [ratio]
CAUCAGCUGUCUACACCACAAAAAGCAAGUCAACACCAAGUUCUGUUUUUGUUAUCAGAUGCCGCACAUGCUAAGAAUCCAACCCAUUCCAUUAAAAAAGUACCUACCUCUGCUUUAGUU,0.409
ACCCACACUGAUGAGGACCCCCAGAUGUCAAUGGUUGAAGACUGUCAUGCUUCAGAGCAUAACCGCCCGAUAUCCUCCAUUCCGUCUCAUCCUAGCCAGUCAGUCCGCUCUGUCAACAGC,0.205
ACCAUUGUUGACACCGUGGGAUUUGGAGACCAGAUAAAUAAAGAUGACAGCUAUAAGCCGACCGCCGAAUAUAUUGAUGCCCAGUUCGAGGCCUACCUGCAAGAGGAAUUGAAGAUUAAA,0.462
CCCCUAUCUAGGCCUUCUUACGAGCCAAAACCUGCCCCUACUCCUCCUAGACCUAACCUGACCCGAAAAGCUAUUACCUAAAACAAUUUCACAGCACCAAAUCUCCACCUCCAUCAUCAC,3.45
UUGAUCAGGGAAGACUUAGGGUUCAGAUUUAUAUCUGAGCAGGUCAGUCACCACCCUCCUAUCCGCGCAUUUUAUUCAGAAGGUCUCAAUCAAGACUUCAGGUUCCACGGUUCCAUCUAC,0.193
GGCAGCCGUUUCUUGCCGGCCCUGGGAGUCUGCUAUGGCGUUCCCUCACCUACAACAGCCCCGUUUCCUUCUGGCUAGCCUGAAAGCUGACUCUAUAAAUAAGCCCUUUGCACAACGUUG,0.237
CUUCUGUUUCAUACAAUAUCCUUUCAUACUUCUGCUAAUCUGCUAAUGUAAUUUGGAAGACCGCUGUCACCAGGAUAACCUGUAAUGGGCAAGGAGCCACAGAGAAGAAAACAUUUCUUU,0.113
GGAAGCACAUUAAUGGAAAUAGAUGGCGAUAAAGGCAAACAAGGCGGUCCCACCUACUACACCGAUACUAAUGCUCUGCGUGUUCCGAGGGAGAAUAUGGAGGCCAUUUCACCUCUAAAA,0.167
CUAGCACAAGGAGACAUGAAACAGCUGGCUGAAGAUGUGAAGCUGCAGCUGUAUAAGUUACCCGAAAUUCCUGAUCCAGACAAAAACUGGGCUACUCUGGCGCAGAAAUUAGGUCUGGGG,0.17
UUUCAGGAUUCUUCUGGCACCAAGGCGAACUCUUCUUGGUACUUCUGACAAUACAGAUCUUCCGGACAAAUUUACCCGCUGAAUGCUUUGGGGCAGGAGGAAAGUAAAACCUUGGAAGCA,0.119
CUUAUGGCUGCAGAAACAGGAAGUGGCAAAACUGGUGCUUUUAGUAUUCCAGUUAUCCAGACCGUUUAUGAAACUCUGAAAGACCAACAGGAAGGCAAAAAAGGAAAAACAACAAUUAAA,0.351

# For quick reference, copied from above (block 4):
Sequence,E-score
ATAGCAAT,-0.305
AATTTCGT,-0.0543
GTGGTTAA,-0.0978
TCACTCAA,-0.205
GTGCAGGA,-0.161
CCTCGTTA,-0.287
CCTACCAC,-0.0606
CAGGGGAA,-0.145
ATCCTACA,-0.306
CCGTTGCC,0.33
ATGAGCGA,0.179
AAAGTTGC,-0.0713
ATCTACAA,-0.141
CAGTCCCA,-0.29
CCAATCCC,-0.0636
